Measurements pooled from the literature.
Parts stem from different laboratories: compare values within a part only. Substitutions count along the parent as printed.

Sample 1 — technique: universal PBM; form: double-stranded DNA, one strand shown; sample: in vitro; tested at: 600 nM; direction: higher = stronger binding
Target: Sal-like protein 4, full length isoform A (SALL4, Homo sapiens, UniProt Q9UJQ4, residues 1-1053)
Chain of UniProt Q9UJQ4 (whole entry, looked up): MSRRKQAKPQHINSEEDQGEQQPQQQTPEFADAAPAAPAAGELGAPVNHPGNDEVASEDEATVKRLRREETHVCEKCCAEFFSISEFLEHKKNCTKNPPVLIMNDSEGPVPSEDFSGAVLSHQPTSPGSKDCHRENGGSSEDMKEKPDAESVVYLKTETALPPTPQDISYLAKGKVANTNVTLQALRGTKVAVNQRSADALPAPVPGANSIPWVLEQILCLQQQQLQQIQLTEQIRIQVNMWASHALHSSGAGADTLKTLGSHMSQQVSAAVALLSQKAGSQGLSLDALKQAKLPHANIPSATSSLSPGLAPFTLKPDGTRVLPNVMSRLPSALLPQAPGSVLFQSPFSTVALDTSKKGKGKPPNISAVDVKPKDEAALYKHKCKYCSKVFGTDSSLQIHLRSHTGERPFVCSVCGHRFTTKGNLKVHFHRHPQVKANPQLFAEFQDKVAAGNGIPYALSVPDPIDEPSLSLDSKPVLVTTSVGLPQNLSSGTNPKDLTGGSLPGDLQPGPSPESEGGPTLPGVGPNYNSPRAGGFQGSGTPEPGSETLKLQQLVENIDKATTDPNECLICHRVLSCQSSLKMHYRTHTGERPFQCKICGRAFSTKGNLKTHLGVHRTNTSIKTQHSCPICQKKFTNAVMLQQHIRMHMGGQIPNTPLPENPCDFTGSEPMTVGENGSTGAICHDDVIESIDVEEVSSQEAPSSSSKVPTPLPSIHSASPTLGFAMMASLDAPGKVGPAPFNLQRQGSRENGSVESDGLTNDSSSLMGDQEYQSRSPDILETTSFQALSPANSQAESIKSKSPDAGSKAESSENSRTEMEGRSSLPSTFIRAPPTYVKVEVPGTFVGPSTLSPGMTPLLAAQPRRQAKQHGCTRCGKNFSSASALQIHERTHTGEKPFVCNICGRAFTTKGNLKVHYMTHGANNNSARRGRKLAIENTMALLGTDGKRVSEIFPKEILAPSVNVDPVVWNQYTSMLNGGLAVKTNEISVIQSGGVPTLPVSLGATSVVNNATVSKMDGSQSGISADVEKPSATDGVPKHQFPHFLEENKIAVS
Setting: 8-mer, flanks averaged, mean of replicates
Sequence	E-score
CGGAACAG	-0.223
TATCCCCA	0.0698
ACGTCAGT	-0.146
AGTTGACC	-0.202
GGAGGCAA	-0.259
TGGCAGAA	-0.0749
ATGAATGC	0.241
ATTACCAG	0.0719
ATCCTGCG	-0.151
CTCACCAG	-0.156
ACAGGACC	-0.229
GGTTCAAC	-0.257
ACTACAGT	0.0266
ATATGCAG	0.174
GAGTGACA	-0.0714
GCTCTGAC	-0.173
CCCTGAAA	0.0693
AGGCTACC	-0.216
CACACGGC	-0.225
ACTACTTA	0.174
CTCGCCTC	-0.32
ACAGCGCG	-0.29
ACTTTTAA	0.234

Sample 2 — technique: RNA Bind-n-Seq; form: RNA; sample: in vitro; tested at: 200 nM; setting: whole 134-nt RNA, ends assumed; together with: 150 mM LiCl; reference: input library; direction: higher = stronger binding; library: 7-deaza-guanosine replaces G
Target: Fragile X messenger ribonucleoprotein 1, C-terminal low-complexity region (Fmr1, Mus musculus, UniProt P35922)
Sequence	log2 enrichment
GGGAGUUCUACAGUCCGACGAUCUUCCUCAAGUCCUGUGCUACACAUCGUAUGUACCGAAUCGGAGGAGGUGGAAAGUAUUAUGUUACGCCGUUCGGAUCUGCACUUCCAGCAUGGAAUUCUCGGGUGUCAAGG	-2.85
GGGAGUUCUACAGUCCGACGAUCUGGCCCUGGUGGCAUGCGGGGAGGAAGACGUGGCCUCAUGGAUCGUGGUGGUCCCGGUGGAAUGUUCAGAGGUGGCCGUGGUGGAGACAGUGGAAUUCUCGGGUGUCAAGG	-0.273
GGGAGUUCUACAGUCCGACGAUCUCCUGUGCUACACAUCGUAUGUACCGAAUCGGGGAAAAAGGGGAGGGGUUUUUUUGGGGAAAGUAUUAUGUUACGCCGUUCGGAUCUGCAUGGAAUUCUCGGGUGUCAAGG	0.449
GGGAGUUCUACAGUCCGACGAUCAGUCCUGUGCUACACAUCGUAUGUACCGAAUCGGUUUUGGGGUUUUGGGGUUUUGGGAAAGUAUUAUGUUACGCCGUUCGGAUCUGCACUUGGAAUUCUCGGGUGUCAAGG	-1.58
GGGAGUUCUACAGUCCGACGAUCUCAAGUCCUGUGCUACACAUCGUAUGUACCGAAUCGGUUUUUUUGGUGGAAAGGAAAGUAUUAUGUUACGCCGUUCGGAUCUGCACUUCCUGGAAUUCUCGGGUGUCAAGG	-0.61
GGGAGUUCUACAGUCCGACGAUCAAGUCCUGUGCUACACAUCGUAUGUACCGAAUCGGUUUGGUUUUUUUGGAAAAAGGAAAGUAUUAUGUUACGCCGUUCGGAUCUGCACUUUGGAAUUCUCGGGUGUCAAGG	-2.41
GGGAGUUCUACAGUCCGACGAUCCCUGUGCUACACAUCGUAUGUACCGAAUCGGGGUUUUUGGGGAAAAAGGGGUUUUUGGGGAAAGUAUUAUGUUACGCCGUUCGGAUCUGCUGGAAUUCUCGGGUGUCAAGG	-1.74
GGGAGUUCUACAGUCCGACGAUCAUUUGUACACAGACAGGGAAACUGGCAAGCUGAAGGGAGAGGCAACGGUCUCUUUUGAUGACCCACCUUCAGCUAAAGCAGCUAUUGACUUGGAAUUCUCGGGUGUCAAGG	-0.743
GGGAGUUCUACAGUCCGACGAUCCAAGUCCUGUGCUACACAUCGUAUGUACCGAAUCGGGUUGGGGUUGGGGUUGGGGAAAGUAUUAUGUUACGCCGUUCGGAUCUGCACUUCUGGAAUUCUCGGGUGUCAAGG	-0.0528
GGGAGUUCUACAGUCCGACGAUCCUGCGCGCGGAUUUCCCUCUCUGAGGAAGUUUAUCCUUGUGCCUUCUGGAGGAUUUCUCUCUAGCUCGACUCACUCUGGACUGACUCGCUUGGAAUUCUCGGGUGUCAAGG	-1.56
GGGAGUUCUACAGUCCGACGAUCGUAGAAAUUCAUGUAUAAAUGGAACCAUAUAGUACAUACAUAUCAUACUCUUAGGUCUGGCAAAUAUUUGAGGUUCAUCCAUAUUUUAUAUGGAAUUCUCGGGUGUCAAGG	-2.08

Sample 3 — technique: protein binding microarray; form: double-stranded DNA, one strand shown; sample: in vitro; tested at: not given; reference: not given; direction: higher = stronger binding
Target: Histone acetyltransferase KAT6A, winged helix 2, GST fusion (KAT6A, Homo sapiens, UniProt Q92794, residues 85-181)
Setting: 8-mer, flanks averaged, mean of 2 arrays, mostly near background
Residues (chain): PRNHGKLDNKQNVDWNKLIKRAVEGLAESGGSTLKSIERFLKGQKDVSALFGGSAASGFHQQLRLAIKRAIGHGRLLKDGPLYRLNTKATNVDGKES
Sequence	E-score
CATTATAC	-0.0601
CCATAGGA	-0.027
ACTTCACT	-0.0764
ATTGGACG	-0.111
GATTTGAA	0.0418
AATCTCAG	-0.217
ATTCGCTC	0.105
GCGTCGAC	0.113
AGCTCCTA	-0.035
CAACCATG	-0.0647
AGGCCAAT	-0.167
GCACGCAC	-0.0348
TGCCCCAA	0.0128
AAGCTAGC	0.0219
AAACGAGT	0.0218
GACTATGA	-0.0712
CCGATGCC	0.102
AGCTCAGA	-0.0906
ACGTCTTA	-0.115
GAGTGAAA	0.128
CAGCATTC	-0.0519

Sample 4 — technique: DHFR PCA, deep sequencing; sample: yeast; together with: (+)-ABA 0.032 µM; reference: wild-type fitted maximum; direction: higher = stronger binding
Target: ABI1, truncated, D143A, DHFR fusion (Arabidopsis thaliana)
Setting: methotrexate growth selection, single substitutions
Starting sequence: PYL1, truncated, DHFR fusion (Arabidopsis thaliana); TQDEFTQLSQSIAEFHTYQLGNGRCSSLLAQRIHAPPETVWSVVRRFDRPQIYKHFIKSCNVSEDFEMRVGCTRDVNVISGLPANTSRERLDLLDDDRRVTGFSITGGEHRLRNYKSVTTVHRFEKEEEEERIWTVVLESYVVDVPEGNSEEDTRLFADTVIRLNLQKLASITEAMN
Substitution	relative binding score [%]
R46Q	44.7
Q19C	9.1
H122N	7.26
D95I	-3.85
K54L	-6.39
F66W	8.51
H122E	0.231
L169I	-8.21
K116A	2.19
D75A	6.23
V40L	5.62
W41D	-5.87
G71Q	-2.95
V161N	20.3
K58P	-0.384
R45Q	0.777
E109Q	9.07
M68L	61.9
R49P	7.7
T101N	-2.13
W134C	26.3
Y141K	-10.3
R111E	2.1
C60R	5.94
E131A	37.9

Excerpt of the above (sample 1):
Sequence	E-score
AGGCTACC	-0.216
CACACGGC	-0.225
ACTACTTA	0.174
CTCGCCTC	-0.32
ACAGCGCG	-0.29
ACTTTTAA	0.234
